Published values of several laboratories.
A part holds a random share of what one study measured. Changes are numbered by the printed parent chain.

Set 1 — technique: DHFR PCA, deep sequencing; medium: yeast; added: (+)-ABA 0.032 µM; baseline: wild-type fitted maximum; reading: higher = stronger binding
Target: ABI1, truncated, D143A, DHFR fusion (Arabidopsis thaliana)
Setting: methotrexate growth selection, single substitutions
Starting sequence: PYL1, truncated, DHFR fusion (Arabidopsis thaliana); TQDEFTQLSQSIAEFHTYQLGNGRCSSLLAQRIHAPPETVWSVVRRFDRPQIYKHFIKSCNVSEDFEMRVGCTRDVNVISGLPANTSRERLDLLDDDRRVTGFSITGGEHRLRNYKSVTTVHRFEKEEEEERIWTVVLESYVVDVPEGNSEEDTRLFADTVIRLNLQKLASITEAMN; partner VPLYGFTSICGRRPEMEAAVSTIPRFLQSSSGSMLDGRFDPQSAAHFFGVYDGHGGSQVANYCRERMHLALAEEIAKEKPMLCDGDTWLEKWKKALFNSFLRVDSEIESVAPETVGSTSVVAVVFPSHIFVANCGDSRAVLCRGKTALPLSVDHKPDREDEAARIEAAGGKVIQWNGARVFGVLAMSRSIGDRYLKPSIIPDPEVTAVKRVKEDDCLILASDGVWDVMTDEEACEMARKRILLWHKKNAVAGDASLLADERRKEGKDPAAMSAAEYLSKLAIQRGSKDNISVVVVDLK
Change | relative binding score [%]
V145L | -3.6
L112H | -12.3
N114Q | -10.6
T119Q | -0.614
V78P | -0.126
L138A | 2.78
N77Y | 37.5
P83I | -1.83
Y53D | -7.73
K116V | -1.69
F66I | -3.56
E174S | 1.21
E131H | 60.6
L20C | 34.7
E67M | 3.15
S63K | 42.3
T120M | 3.66
N114I | 7.11

Set 2 — technique: protein binding microarray; molecule type: double-stranded DNA, one strand shown; medium: in vitro; tested at: not given; baseline: not given; reading: higher = stronger binding
Target: Histone acetyltransferase KAT6A, winged helix 1, GST fusion (KAT6A, Homo sapiens, UniProt Q92794, residues 1-85)
Setting: 8-mer, flanks averaged, mean of 2 arrays, mostly near background
Residues (chain): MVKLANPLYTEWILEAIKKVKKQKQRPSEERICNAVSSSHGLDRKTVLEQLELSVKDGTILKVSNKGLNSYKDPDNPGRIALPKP
Oligonucleotide | E-score
AATCTTGC | -0.13
AGCCGCAT | 0.21
GACAGCGC | 0.385
ATGAATTA | -0.123
AAGCAAGT | -0.128
AAAATGAA | -0.191
ATTACAAT | 0.0373
CCTCTAGA | -0.0835
CGTCCCAC | 0.129
CCGGCGAG | 0.271
AACGGGAA | 0.204
ATAACACG | 0.2
AGCGTTCA | 0.032
AATGAGTA | 0.0425
ATCTAGGC | -0.0412
ACTAGTGC | 0.111
ATTCAGGG | -0.0843
CCGCTGTC | 0.228
GCGGTTCA | 0.254
CGTAGACC | 0.148
AAAGCCAG | -0.228
GCAGAACC | 0.0478
AAGGGACT | -0.144
GTTCGGGA | 0.0958
GGATGGCC | 0.014

Set 3 — technique: universal PBM; molecule type: double-stranded DNA, one strand shown; medium: in vitro; tested at: 600 nM; reading: higher = stronger binding
Target: Sal-like protein 4, full length isoform A (SALL4, Homo sapiens, UniProt Q9UJQ4, residues 1-1053)
Sequence of UniProt Q9UJQ4 (whole entry, looked up): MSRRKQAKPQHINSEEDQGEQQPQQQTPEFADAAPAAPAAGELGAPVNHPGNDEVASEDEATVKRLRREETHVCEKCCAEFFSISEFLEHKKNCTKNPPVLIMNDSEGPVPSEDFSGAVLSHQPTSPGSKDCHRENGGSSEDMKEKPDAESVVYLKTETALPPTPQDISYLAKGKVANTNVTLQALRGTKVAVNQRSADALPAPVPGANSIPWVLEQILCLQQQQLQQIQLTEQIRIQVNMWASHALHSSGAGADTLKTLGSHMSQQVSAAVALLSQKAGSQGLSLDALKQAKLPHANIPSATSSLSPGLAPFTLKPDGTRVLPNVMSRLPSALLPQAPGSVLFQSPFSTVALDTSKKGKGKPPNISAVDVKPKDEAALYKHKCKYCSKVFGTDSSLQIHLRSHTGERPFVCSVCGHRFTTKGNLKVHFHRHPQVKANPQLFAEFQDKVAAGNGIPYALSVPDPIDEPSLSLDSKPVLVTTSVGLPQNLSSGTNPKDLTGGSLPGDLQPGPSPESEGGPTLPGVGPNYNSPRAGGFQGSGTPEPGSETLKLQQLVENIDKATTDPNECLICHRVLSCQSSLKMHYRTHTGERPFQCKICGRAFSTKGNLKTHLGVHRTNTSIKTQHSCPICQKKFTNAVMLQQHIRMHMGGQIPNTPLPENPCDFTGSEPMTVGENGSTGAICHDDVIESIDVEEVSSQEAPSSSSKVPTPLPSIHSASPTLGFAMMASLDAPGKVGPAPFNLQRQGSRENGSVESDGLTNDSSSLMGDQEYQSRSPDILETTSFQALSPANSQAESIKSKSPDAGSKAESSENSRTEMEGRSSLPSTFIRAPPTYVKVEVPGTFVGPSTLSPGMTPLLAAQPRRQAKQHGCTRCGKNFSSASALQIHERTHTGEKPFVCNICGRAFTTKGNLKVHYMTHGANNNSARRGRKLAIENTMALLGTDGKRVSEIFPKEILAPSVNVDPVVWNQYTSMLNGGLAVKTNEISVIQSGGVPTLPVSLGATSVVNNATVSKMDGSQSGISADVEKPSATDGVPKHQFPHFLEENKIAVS
Setting: 8-mer, flanks averaged, mean of replicates
Oligonucleotide | E-score
CGTCCCAA | -0.197
CCGCGAGA | -0.229
AATAGATC | 0.22
CACTGCGA | -0.0326
CTCTAGTA | 0.0973
CCGTCAGA | -0.132
AACTGGAG | -0.069
CGCTCCAA | -0.162
GGTCCTAA | 0.111
CTGTCATA | 0.237
ACCAGCGC | -0.189
AGACCGGC | -0.327
CTACGATA | 0.213
TACCGCCA | 0.0006
CGCGACGC | -0.333
CTAAGCAG | -0.235
ACCTGTAC | 0.0214
ATAAGCAA | 0.326
ATGTCTGC | -0.0823
AGCAACAA | 0.17

Set 4 — target: ATF1, bZIP domain (human); technique: DHFR protein complementation; medium: yeast; baseline: wild-type JUN-FOS pair; reading: higher = stronger binding
Setting: single substitutions, most at no-binding floor
Starting sequence: JUN, bZIP domain (human); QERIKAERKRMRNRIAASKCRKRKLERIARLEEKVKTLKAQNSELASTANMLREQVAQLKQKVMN; partner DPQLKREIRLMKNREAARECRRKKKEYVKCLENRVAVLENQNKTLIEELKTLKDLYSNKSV
Change | binding fitness
R53P | -1.56 natural log
Q55D | -1.64 natural log
T37H | -1.47 natural log
R53G | -1.55 natural log
S47C | -1.4 natural log
T48K | -1.53 natural log
E32L | -1.53 natural log
I28C | -1.56 natural log
K39I | -1.47 natural log
L45R | -1.5 natural log
M51A | -1.49 natural log
L59H | -1.53 natural log
A49Q | -1.48 natural log
L52R | -1.51 natural log
L45M | -1.54 natural log
E33R | -1.55 natural log
V56P | -1.51 natural log
E32F | -1.46 natural log

Set 5 — technique: protein-binding microarray; molecule type: double-stranded DNA, one strand shown; medium: in vitro; tested at: 2200 nM top; setting: 60-bp whole probe; added: salmon DNA 0.4 mg/ml; baseline: random background probes; reading: higher = stronger binding; constant ends, left off below: GCCTAGCAC … GTCTTGATTCGCTTGACGCTGCTG
Target: Interferon regulatory factor 7, full length, phosphomimetic (IRF7, Homo sapiens, UniProt Q92985, residues 1-503, S471D/S472D/S475D/S476D/S477D/S483D/S484D/S487D)
Sequence of UniProt Q92985 (whole entry, unmodified, looked up): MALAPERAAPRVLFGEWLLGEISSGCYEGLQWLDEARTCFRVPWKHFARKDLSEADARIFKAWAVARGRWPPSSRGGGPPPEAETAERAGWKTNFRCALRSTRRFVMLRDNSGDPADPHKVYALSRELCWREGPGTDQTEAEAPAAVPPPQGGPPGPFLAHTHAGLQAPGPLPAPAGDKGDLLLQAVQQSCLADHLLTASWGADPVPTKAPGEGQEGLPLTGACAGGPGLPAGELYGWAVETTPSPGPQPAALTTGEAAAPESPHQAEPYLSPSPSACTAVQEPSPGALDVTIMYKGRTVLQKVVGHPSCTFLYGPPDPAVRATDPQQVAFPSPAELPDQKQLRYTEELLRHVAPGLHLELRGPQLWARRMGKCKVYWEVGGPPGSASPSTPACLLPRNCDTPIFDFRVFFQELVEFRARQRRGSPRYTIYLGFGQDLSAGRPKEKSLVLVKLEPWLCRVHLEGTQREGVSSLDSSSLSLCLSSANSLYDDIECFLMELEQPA
Oligonucleotide | fitted relative affinity
TTAGGGCTCGGACTGGGTTAGTGCTAG | -1.14 z-score
TTAGGTTTCGGAACTGGGTTAGTGCTA | 3.42 z-score
GACCGACTGCTTATCCTGACGTGCTAG | 0.664 z-score
GACGGGATCGGTTTCGGGACGTGCTAG | 2.93 z-score
GACGATCTCAGTATCTAGACGTGCTAG | 0.117 z-score
TGTGAAACCTTCAGGCACGTGTGCTAG | -0.361 z-score
TCATACATGCATATAGTACTGTGCTAG | 0.847 z-score
TTGCTTCTATAGGCTAGAATCGTGCTA | 0.0605 z-score
GACGATTTCAGACAGGAGACGTGCTAG | 0.0982 z-score
TCATGTTTTTTTCTACTTCTGTGCTAG | 2.69 z-score
TCATTTTTTAGCTTCTCACTGTGCTAG | 1.91 z-score
CCACTTTCACTTCTCCCTTTGTGCTAG | 12.6 z-score
GCTTCTCCTTGGAATAGATCGTGCTAG | 1.48 z-score
TTAGGACTGCTAATGCTTTAGTGCTAG | 0.155 z-score
TCCACTTGTCTTTTCACTTTGTGCTAG | 3.99 z-score
TTAGATCTCGGTCTCGGTTAGTGCTAG | 0.79 z-score
GACCGTTTCGGTTTCGGGACGTGCTAG | 11.8 z-score
TCACATTTTGGTTTTCAACTGTGCTAG | 2.74 z-score

Set 6 — target: CCNA1, cyclin fold, Cln2 fusion (human); technique: yeast growth competition, sequencing; medium: yeast; setting: weak parent motif; baseline: not given; reading: higher = stronger binding
Starting sequence: CDC6 docking peptide (human); TLKGRRLVFDNQL
Change | normalised enrichment score
R5V | 0.0898
K3Y | 0.435
K3W | -0.199
L2P | 0.296
G4Q | 0.333
R5L | 0.379
D10T | -0.0608
N11L | 0.0298
K3G | 0.115
F9D | 0.268
K3F | -0.0078
L2W | 0.155
G4M | 0.345
V8C | 0.579
L13M | 0.233
L7H | 0.329

Single results of other studies
Substance | target | test | system | conditions | how to read | endpoint | value
PhoQ, residues 284 288 289 292 302 303 TYGVAM | PhoP, residues 12 14 15 18 19 TPWLV (Escherichia coli, UniProt P23836) | Sort-seq, refers to: YFP reporter | E. coli | PhoQ-PhoP variant library, added: 10 µM Mg2+ | baseline: high Mg2+ state, higher = stronger signaling | fold induction | 15.6

For quick reference, copied from above (set 1):
Change | relative binding score [%]
N77Y | 37.5
V78P | -0.126
T120M | 3.66
K116V | -1.69
V145L | -3.6
L20C | 34.7
N114Q | -10.6
E67M | 3.15
S63K | 42.3
Y53D | -7.73
N114I | 7.11
P83I | -1.83
E131H | 60.6
L112H | -12.3
L138A | 2.78
